Results pooled from the literature.
A part holds a random share of what one study measured.

Series 1
Target: RNA binding protein fox-1 homolog 2, RRM domain, GST-SBP tag (RBFOX2, Homo sapiens, UniProt O43251-10, residues 100-194)
Method: RNA Bind-n-Seq
Form: RNA
Sample: in vitro
Concentration: 365 nM
Setting: natural RNA segment, single round, ends assumed
Relative to: no-protein control
Direction: higher = stronger binding
Constant ends, left off below: GGGAGUUCUACAGUCCGACGAUC … UGGAAUUCUCGGGUGCCAA
Residues (chain): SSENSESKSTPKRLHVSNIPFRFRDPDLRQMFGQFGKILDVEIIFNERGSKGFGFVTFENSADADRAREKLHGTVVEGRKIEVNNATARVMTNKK
| Sequence | RBNS enrichment (R) |
| --- | --- |
| CUGUAAACCUUUGUUGCCGCCGCAGGAAGCUGAGGCCAGCUUGUGUGUGAGCACUGGAGUGUCCAGAGCCCUGCACACUCGGGGUGGGGGGCGGGGUACUCUCCCUGUCG | 0.19 |
| GGUUGUGUGUGUAUUGUGUAUAUACCUCAAGUUCAAGUUAAUGGCAUUGAUUUAUGUUCCAGACAAAAAUAACACAAAUAAUAAUAUCCUUCGUUAUAACCACAAUGAGA | 0.296 |
| ACAAGAGAGCAGAGAAUCUGCUGAUGUGGCUGCGCUUACUUUUAGUGACUUUAUGUACUUAUAUUAACAGCUGGAAAUAGGUUGUUGGGUUUUGAGCAGGCUGUUAUAGU | 0.574 |
| GCAAGCUCCAGGGAACCCUCUGUGCUUAUGAAGCUCGUCUGGUGGGCAACCCCAGCCCACUGGACAGAGUCCUCAUGGAAAUGCCUGGGAAGCUGAUUUCAUCUAAGGAU | 0.248 |
| CAGUUUUAUGCUCUCGGAAGGCUCAGCAGUGAUUGCUGCCGAGUGGGAAGUAGCUUCUCCCAGCUGUUCCUCACCUCACCAGAUAUUUUCCCAAAGCCGAAACAAGAAAA | 0.392 |
| CCCACUGUGAAGGGGUGCCAUACUACCUUAAAUGCUAAUGCUAGAUAUGCAAAACUGGAUUUUUUUAAUUUAUUUUUUAAAAGAGGGAGGCAUGGUAUAUUAAAAUGAUU | 1.78 |
| AGAGUGUUUGUGAAAAAGUUUUAUUUCCUGUUAUGUAUACAUAAUUAAAUGAAAAUUCUUCAGAAAAAGUUUGAUAAAUUGAAUUGUGGUUAUGAAACUAAUUUGCAUUU | 2.3 |
| UAGCUUAACGGUAGUCUUUAGAUCAUAAGAAAUAUAUAAAUUAGUAUGCACCUUAUCUGCCUGUUGUGGGUUUCUUAAACUUGCACUUCCUACCCACCCAAAGAUAGAUA | 1.13 |
| AGUGAACAGGAAAGGGUCACGUGGUCCCAUGUUGCAACAGCCCCAACAUCACGCAUGUCAUUCACUGCCUUGCCACUCCAUCUCCCUCCGUGCUCCAGCCACCCCUGAGC | 4.59 |
| CACUUUGAGGAGAGCAAAGCACAAGCUUGCCUGAAGAAUGGAUCCCAACUUCUCCCCGGCAGCUCUGCCUCCCUAAGUCUGUGAAGCCGCAGCCCUGCCCUGUCCUGUCC | 0.577 |
| UUGUGGUUAGUUUGAAAAACAGACAUGGAUAAACUAAAAUGCUUCAUACUUUAUAAGUAAAGCGCUAUGAAUGCUGUGGAGACCAAGGUGAAAUAAAUAGUGCAAAUGUG | 1.96 |
| AUUUUCUGGACUUUAAAUCUCCUGGUUAAAUAAUGCUAAUCACUGUACCAUUUGAGUUACAUGUUUUAACCUCUUUUUUUUUUCUAAUUAUUCCAUCCAAAAUUUCUGGU | 0.576 |

Series 2
Target: Histone acetyltransferase KAT6A, both winged helices, GST fusion (KAT6A, Homo sapiens, UniProt Q92794, residues 1-181)
Method: protein binding microarray
Form: double-stranded DNA, one strand shown
Sample: in vitro
Concentration: not given
Setting: 8-mer, flanks averaged, mean of 2 arrays, mostly near background
Relative to: not given
Direction: higher = stronger binding
Residues (chain): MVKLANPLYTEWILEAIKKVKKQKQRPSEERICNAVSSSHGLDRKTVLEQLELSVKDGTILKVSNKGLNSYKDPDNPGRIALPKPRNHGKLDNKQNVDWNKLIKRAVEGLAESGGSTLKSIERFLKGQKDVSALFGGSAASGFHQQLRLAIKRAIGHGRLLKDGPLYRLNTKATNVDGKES
| Sequence | E-score |
| --- | --- |
| GCTGGACA | -0.133 |
| GTTGGTTA | -0.0952 |
| CACGGAAG | 0.236 |
| GGTGCAAA | -0.0818 |
| ACGCTCAA | 0.0582 |
| GCAGCGAA | 0.0253 |
| ATCGGGTA | 0.109 |
| GTGCTATA | -0.0885 |
| GTGGTCGA | -0.145 |
| CGCCGAGA | 0.258 |
| GGTCACAA | -0.0225 |
| ATCTGCGG | 0.151 |
| CATGACCG | 0.135 |
| ATCGTGGA | -0.139 |
| GATTAAAC | 0.117 |
| GGTATTTA | -0.00581 |
| TTGGACAA | -0.044 |
| CTGGATCA | -0.184 |
| CAACAAGG | -0.128 |
| CATGTCCC | 0.0657 |
| CGTAATGC | 0.115 |
| AACGTACC | -0.0614 |
| GTCTTGAA | 0.0155 |
| AGCCCTGC | -0.103 |
| CAGTATCG | 0.164 |

Series 3
Target: Ras GTPase-activating protein-binding protein 1, RRM domain (G3BP1, Homo sapiens, UniProt Q13283)
Sequence of UniProt Q13283 (whole entry, looked up): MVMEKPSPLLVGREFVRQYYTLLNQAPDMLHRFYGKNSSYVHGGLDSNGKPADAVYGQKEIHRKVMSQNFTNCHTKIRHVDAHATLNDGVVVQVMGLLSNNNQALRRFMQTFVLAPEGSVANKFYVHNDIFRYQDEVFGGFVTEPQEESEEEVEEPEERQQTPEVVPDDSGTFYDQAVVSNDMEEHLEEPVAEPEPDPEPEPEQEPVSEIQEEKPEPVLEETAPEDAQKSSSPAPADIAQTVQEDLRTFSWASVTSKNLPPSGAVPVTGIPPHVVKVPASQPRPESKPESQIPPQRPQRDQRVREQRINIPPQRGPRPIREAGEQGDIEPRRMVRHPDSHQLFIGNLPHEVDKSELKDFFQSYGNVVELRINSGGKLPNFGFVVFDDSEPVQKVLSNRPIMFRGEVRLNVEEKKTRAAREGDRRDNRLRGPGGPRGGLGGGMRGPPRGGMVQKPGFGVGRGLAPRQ
Method: RNA Bind-n-Seq
Form: RNA
Sample: in vitro
Concentration: 1 µM
Setting: whole 134-nt RNA, ends assumed
Together with: 150 mM KCl
Relative to: input library
Direction: higher = stronger binding
Constant ends, left off below: GGGAGUUCUACAGUCCGACGAUC … UGGAAUUCUCGGGUGUCAAGG
| Sequence | log2 enrichment |
| --- | --- |
| AAGUCCUGUGCUACACAUCGUAUGUACCGAAUCGGUUUUUUUGGUUUGGUUUUUGGAAAGUAUUAUGUUACGCCGUUCGGAUCUGCACUU | -0.418 |
| UCCUGUGCUACACAUCGUAUGUACCGAAUCGGGGAAAAAGGGGUUUUUUUGGGGAGGGGAAAGUAUUAUGUUACGCCGUUCGGAUCUGCA | 0.829 |
| AAGUCCUGUGCUACACAUCGUAUGUACCGAAUCGGGGAGGGGAAAAAGGGGAGGGGAAAGUAUUAUGUUACGCCGUUCGGAUCUGCACUU | 0.922 |
| ACCAUGCAGGUGGGCAUCUUUGGGAAGUGGGGCAAGGGGGGGAUAGGGAGGGGGGUAACACUUUGGGAACAGCUGGUCCCAGGUCGUUUC | 0.928 |
| UGGCCCUGGUGGCAUGCGGGGAGGAAGAGGUGGCCUCAUGGAUCGUGGUGGUCCCGAUGGAAUGUUCAGAGGUGGCCGUGGUGGAGACAG | 0.812 |
| CCUCAAGUCCUGUGCUACACAUCGUAUGUACCGAAUCGGAGGUGGAAAAAGGAAAGUAUUAUGUUACGCCGUUCGGAUCUGCACUUCCAG | -0.146 |
| AGUCCUGUGCUACACAUCGUAUGUACCGAAUCGGGAAAAAAAGGGAGGGUUUUUGGGAAAGUAUUAUGUUACGCCGUUCGGAUCUGCACU | 0.559 |
| CUCAAGUCCUGUGCUACACAUCGUAUGUACCGAAUCGGAAGGGAAGGGGAAGGGAAAGUAUUAUGUUACGCCGUUCGGAUCUGCACUUCC | 0.114 |
| CCUCAAGUCCUGUGCUACACAUCGUAUGUACCGAAUCGGGUGGGGUGGGUGGAAAGUAUUAUGUUACGCCGUUCGGAUCUGCACUUCCAG | 0.346 |
| UGCUUGUGUUUCUGACAGAUUCACUGCCUUCUGAGGACUUGGAUCCUGCCGAUCCCCCGAUCUCGGUAACUGUUGGCCUGAUCUGGCUGU | 0.0303 |

Series 4
Target: Transcription factor SOX-2, HMG box (SOX2, Homo sapiens, UniProt P48431, residues 19-118)
Sequence of UniProt P48431 (19-118, looked up): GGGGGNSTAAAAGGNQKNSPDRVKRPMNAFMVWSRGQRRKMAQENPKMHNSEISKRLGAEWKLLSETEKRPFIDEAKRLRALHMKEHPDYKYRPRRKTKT
Method: protein-binding microarray
Form: double-stranded DNA, one strand shown
Sample: in vitro
Concentration: not given
Setting: k-mer, scored over probes, only values ≥0.25
Direction: higher = stronger binding
| Sequence | E-score |
| --- | --- |
| AGCATTG | 0.291 |
| AATTAGC | 0.336 |
| CAATAAC | 0.329 |
| ATATTGA | 0.318 |
| AAAAAAT | 0.307 |
| AATTTTG | 0.26 |
| ATTGTCA | 0.413 |
| AAAAAGC | 0.333 |
| GAATGGC | 0.276 |
| ACAATAG | 0.458 |
| ATCACAA | 0.264 |
| ATATTCA | 0.347 |
| AAACAAA | 0.325 |
| AATTAAG | 0.286 |
| AATTACA | 0.386 |
| ATAATAC | 0.365 |
| AGTATTG | 0.268 |
| AATGATA | 0.319 |
| AATTGAG | 0.303 |
| ATAGAAT | 0.345 |
| CAATTCA | 0.462 |
| AATTGAA | 0.423 |
| GAATGTA | 0.28 |
| GAATGCA | 0.343 |
| ATAAAAT | 0.264 |
